Published values gathered from unrelated publications.
Each line is one published result; not all experiments were run side by side. ± marks the error that the study gave.
MAPK8: Mitogen-activated protein kinase 8 (MAPK8, Homo sapiens, UniProt P45983)
Oprm1: Mu-type opioid receptor (Oprm1, Mus musculus, UniProt P42866)
lasR: Transcriptional activator protein LasR (lasR, Pseudomonas aeruginosa, UniProt P25084)
Orco: Orco (Drosophila melanogaster, UniProt Q9VNB5)
FURIN: Furin (FURIN, Homo sapiens, UniProt P09958)

By UniProt entry, the sequences of proteins in these tests, tags left out. Residues count along the entry.
UniProt P42866, whole entry: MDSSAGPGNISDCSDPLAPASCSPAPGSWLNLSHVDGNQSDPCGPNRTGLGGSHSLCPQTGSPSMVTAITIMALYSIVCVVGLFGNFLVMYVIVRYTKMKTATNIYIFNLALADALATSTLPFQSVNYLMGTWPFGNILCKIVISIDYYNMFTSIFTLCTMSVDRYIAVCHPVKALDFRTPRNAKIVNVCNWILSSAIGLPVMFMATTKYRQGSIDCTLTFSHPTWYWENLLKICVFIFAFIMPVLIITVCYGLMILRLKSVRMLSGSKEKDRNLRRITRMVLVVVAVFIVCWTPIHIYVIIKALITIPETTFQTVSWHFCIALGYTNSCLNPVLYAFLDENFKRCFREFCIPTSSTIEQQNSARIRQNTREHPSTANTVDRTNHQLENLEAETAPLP
UniProt P25084, 1-173 limits assumed: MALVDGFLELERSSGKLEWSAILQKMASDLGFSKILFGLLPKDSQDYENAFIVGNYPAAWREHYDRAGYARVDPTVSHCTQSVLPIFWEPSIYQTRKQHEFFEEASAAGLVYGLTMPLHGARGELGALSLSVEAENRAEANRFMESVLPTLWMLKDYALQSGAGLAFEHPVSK
UniProt P25084, whole entry: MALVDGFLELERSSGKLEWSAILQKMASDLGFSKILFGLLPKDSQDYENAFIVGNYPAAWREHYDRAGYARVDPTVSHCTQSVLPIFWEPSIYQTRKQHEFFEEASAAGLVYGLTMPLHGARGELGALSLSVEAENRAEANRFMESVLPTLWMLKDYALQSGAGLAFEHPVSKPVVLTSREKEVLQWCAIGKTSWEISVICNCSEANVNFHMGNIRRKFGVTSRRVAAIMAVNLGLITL
UniProt P51452, 28-179 limits assumed: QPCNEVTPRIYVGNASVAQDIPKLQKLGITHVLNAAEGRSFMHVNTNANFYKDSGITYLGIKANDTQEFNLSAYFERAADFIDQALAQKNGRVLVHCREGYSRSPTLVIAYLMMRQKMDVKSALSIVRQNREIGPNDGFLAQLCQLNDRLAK
UniProt Q8RLA6, 21-275 limits assumed: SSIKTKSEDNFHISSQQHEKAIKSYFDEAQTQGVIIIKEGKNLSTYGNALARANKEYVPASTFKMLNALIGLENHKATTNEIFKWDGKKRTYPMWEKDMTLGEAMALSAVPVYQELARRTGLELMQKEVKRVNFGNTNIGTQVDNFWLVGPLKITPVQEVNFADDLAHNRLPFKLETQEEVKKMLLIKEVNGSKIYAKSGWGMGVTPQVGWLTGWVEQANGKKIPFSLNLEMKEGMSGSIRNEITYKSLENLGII
UniProt P22303, 32-614 limits assumed: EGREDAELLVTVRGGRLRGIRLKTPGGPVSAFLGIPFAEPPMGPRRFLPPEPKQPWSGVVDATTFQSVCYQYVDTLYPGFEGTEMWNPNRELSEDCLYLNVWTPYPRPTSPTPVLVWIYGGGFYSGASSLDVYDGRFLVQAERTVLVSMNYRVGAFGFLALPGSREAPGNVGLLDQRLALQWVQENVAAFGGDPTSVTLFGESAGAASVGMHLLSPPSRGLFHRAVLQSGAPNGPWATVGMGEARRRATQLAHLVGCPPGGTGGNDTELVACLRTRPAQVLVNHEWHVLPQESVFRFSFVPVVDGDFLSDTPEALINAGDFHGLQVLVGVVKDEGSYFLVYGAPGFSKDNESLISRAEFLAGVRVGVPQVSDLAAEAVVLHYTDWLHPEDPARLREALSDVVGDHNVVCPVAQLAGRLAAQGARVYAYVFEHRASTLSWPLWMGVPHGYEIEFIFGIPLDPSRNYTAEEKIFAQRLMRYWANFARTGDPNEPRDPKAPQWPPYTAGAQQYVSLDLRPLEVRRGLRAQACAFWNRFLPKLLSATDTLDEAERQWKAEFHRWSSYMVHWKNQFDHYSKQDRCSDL
UniProt Q05769, 18-604 limits assumed: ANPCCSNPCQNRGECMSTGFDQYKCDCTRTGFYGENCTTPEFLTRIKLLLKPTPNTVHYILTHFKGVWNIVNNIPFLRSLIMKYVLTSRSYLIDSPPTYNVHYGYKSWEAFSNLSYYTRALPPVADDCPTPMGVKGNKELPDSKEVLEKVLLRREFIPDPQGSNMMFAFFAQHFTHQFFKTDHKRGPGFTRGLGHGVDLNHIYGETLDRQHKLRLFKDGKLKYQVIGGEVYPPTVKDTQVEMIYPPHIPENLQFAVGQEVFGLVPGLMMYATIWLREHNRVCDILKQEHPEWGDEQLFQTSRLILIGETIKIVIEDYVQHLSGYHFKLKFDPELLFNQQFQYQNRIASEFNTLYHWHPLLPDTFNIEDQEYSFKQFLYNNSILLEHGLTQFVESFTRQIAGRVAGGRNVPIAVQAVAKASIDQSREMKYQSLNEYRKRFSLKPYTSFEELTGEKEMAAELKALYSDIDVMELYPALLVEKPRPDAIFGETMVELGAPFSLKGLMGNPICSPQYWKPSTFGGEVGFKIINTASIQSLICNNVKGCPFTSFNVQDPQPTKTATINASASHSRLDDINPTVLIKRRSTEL
UniProt P05067, 672-713 limits assumed: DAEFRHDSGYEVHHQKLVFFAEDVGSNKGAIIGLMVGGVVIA
UniProt Q07812, whole entry: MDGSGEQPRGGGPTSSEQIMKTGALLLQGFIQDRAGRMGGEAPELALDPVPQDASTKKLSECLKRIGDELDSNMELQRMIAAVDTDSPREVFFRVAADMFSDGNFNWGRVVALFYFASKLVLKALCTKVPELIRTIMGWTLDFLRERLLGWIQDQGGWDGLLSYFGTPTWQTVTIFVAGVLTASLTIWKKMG
UniProt P30291, whole entry: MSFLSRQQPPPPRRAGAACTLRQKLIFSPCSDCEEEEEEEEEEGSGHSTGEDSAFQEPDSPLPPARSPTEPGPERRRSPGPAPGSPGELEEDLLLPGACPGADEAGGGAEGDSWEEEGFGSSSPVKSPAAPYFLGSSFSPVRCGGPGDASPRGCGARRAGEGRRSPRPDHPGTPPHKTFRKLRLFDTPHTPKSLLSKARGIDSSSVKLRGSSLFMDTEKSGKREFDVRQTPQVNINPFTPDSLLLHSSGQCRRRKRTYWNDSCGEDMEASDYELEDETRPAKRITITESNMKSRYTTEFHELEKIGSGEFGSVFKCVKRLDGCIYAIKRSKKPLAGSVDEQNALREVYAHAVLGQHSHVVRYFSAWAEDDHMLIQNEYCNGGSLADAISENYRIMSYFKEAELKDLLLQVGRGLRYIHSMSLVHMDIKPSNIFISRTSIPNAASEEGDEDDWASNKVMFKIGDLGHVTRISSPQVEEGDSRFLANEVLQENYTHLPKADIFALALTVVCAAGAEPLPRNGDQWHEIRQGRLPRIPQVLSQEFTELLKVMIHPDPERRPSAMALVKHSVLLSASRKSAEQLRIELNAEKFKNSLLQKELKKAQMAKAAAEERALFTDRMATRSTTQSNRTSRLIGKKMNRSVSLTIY
UniProt Q96SW2, whole entry: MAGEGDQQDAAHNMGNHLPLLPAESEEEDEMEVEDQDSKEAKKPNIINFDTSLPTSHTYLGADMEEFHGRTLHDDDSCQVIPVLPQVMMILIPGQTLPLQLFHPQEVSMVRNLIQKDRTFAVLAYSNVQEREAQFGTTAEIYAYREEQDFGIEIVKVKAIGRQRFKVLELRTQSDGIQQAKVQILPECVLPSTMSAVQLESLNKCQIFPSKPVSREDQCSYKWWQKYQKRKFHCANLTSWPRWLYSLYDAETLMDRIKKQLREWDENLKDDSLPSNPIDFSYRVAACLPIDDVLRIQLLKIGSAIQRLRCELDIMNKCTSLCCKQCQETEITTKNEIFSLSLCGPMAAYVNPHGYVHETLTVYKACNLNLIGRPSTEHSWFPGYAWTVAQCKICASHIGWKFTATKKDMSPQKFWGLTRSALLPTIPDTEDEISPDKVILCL
UniProt P02769, 25-607 limits assumed: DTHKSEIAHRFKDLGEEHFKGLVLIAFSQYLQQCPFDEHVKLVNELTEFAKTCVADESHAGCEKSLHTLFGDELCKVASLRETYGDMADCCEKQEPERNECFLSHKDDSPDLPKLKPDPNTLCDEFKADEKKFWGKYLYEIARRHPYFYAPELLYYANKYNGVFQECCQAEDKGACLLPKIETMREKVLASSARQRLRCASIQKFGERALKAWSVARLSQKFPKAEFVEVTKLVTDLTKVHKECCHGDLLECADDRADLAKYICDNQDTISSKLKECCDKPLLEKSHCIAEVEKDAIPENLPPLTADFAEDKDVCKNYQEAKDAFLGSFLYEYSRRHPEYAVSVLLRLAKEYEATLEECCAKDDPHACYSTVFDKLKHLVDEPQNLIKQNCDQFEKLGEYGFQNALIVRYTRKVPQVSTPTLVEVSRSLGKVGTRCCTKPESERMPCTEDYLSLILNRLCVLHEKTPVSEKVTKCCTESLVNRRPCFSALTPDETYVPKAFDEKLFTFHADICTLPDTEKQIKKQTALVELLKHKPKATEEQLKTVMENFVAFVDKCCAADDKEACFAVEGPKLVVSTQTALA
UniProt P21554, whole entry: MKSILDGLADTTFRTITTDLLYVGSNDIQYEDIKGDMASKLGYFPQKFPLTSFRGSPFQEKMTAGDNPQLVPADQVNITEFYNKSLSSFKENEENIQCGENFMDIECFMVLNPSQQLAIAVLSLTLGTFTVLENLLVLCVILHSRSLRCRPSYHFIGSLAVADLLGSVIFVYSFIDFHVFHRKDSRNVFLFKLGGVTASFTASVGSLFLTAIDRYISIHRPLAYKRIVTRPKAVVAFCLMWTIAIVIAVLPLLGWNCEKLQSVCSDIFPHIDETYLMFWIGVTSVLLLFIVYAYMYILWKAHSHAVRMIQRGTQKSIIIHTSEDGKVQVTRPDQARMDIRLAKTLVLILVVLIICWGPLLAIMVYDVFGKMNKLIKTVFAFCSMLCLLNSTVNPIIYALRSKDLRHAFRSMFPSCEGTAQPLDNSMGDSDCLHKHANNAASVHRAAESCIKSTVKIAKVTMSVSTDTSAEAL
UniProt P14416, whole entry: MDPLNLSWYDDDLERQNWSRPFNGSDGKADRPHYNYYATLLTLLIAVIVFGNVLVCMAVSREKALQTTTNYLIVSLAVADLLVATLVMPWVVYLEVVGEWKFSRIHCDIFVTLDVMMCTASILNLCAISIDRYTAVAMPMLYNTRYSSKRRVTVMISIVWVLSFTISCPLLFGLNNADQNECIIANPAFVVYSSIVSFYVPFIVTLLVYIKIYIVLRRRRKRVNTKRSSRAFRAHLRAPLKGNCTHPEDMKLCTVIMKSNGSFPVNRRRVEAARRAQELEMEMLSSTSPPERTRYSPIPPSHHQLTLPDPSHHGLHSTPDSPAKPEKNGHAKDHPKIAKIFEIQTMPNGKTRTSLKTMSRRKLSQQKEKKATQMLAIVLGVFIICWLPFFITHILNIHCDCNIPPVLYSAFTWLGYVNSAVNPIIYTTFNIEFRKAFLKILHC
UniProt P0A6K3, whole entry: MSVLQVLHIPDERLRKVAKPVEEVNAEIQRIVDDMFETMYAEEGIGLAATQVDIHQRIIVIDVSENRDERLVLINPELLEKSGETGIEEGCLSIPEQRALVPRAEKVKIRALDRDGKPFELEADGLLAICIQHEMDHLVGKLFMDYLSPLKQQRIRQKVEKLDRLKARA
UniProt Q9UBN7, whole entry: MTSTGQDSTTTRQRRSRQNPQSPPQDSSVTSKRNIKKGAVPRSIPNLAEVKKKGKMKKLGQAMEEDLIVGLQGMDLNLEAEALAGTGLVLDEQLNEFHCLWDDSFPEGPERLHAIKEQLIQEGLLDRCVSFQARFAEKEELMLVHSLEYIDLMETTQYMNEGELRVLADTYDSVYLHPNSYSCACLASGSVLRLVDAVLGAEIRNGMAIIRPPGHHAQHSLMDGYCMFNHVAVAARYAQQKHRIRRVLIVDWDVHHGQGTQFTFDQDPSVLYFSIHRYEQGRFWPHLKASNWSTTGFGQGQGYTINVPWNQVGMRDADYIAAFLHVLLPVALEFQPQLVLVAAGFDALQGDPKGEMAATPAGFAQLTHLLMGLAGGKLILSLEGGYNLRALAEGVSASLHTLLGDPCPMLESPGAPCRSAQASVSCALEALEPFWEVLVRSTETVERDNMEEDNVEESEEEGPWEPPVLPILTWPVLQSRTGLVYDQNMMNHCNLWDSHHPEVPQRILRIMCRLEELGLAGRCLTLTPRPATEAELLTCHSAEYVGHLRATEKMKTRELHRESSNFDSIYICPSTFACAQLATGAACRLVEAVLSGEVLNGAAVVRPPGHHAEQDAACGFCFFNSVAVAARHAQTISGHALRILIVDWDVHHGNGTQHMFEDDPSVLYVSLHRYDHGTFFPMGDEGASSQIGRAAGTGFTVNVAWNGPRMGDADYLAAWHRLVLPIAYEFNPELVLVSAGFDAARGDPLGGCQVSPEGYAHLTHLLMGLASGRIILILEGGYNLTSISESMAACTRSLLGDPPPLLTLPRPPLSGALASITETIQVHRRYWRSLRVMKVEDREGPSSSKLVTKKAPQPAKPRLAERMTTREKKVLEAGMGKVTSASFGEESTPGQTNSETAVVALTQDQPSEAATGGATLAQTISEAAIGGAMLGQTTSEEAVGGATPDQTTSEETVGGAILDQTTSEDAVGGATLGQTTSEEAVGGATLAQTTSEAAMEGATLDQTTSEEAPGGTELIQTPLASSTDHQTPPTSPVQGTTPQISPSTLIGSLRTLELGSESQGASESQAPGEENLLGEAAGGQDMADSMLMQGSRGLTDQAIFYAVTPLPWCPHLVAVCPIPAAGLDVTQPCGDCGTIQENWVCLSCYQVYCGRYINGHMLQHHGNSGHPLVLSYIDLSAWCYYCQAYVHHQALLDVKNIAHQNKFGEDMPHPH

Structure (SMILES) | target | assay | system | setting | scale | quantity | result
COC(=O)[C@@]1(C)C=C(C(=O)Nc2ccc(C)c(C(=O)Nc3ccc(Nc4nccc(-c5cccnc5)n4)cc3)c2)C(=O)CC1 | MAPK8 | kinase activity, inhibitor |  | 8.363e-05 µM, unit not given, with: 10 mM GSH | baseline: DMSO | remaining activity | 0.911
CC1(C)SCN(C(=O)[C@@H](O)[C@H](Cc2ccccc2)NC(=O)COc2ccccc2)[C@@H]1C(=O)N[C@H]1c2ccccc2C[C@H]1O | Gag-Pol polyprotein, protease (gag-pol, Human immunodeficiency virus type 1 group M subtype B, UniProt P04585, L521I/L551I/Q495K) | isothermal titration calorimetry |  | concentration not given, pH 5.0, 25 °C, 2% DMSO |  | ΔG of binding | -10.81 ± 0.033 kcal/mol
C#CCN1CC[C@]23c4c5ccc(O)c4O[C@H]2[C@H](NC(=O)c2ccc(N=[N+]=[N-])c([125I])c2)CC[C@@]3(O)[C@H]1C5 | Oprm1 | binding | CHO cell membranes | 0.1 nM, 25 °C, with: levallorphan 10 µM |  | rapidly dissociating fraction | 53%
CC(=O)N[C@@H](Cc1c[nH]cn1)C(=O)N[C@H](C(=O)NCC(=O)N[C@@H](Cc1ccccc1)C(=O)N[C@@H](CC(C)C)C(=O)N[C@H](C(=O)N[C@@H](CCC(=O)O)C(=O)N[C@@H](Cc1cc(=O)oc2cc(OP(=O)(O)O)ccc12)C(=O)N[C@H](C(=O)N[C@@H](C)C(=O)N[C@H](C(=O)N[C@@H](CCCNC(=N)N)C(=O)N[C@@H](Cc1c[nH]c2ccccc12)C(N)=O)[C@@H](C)O)C(C)C)[C@@H](C)O)[C@@H](C)O | DUSP3 (Homo sapiens, UniProt P51452) | substrate |  | pH 6, ERK1/2 activation-loop peptide |  | kcat | 0.28 s⁻¹
Nc1cc(S(=O)(=O)O)cc2cc(S(=O)(=O)O)cc(O)c12 | Beta-lactamase (blaOXA-33, Acinetobacter baumannii, UniProt Q8RLA6) | enzyme activity, inhibitor |  |  |  | ligand efficiency | 0.26
COc1ccc(C(=O)Oc2c(Br)cc(Br)cc2CNC(=O)c2ccccc2[N+](=O)[O-])cc1 | lasR | thermal stability, differential scanning fluorimetry |  |  |  | melting temperature | 63.7 °C
CO[P@@]1(=O)OC[C@H]2COC(=O)C2=C(C)O1 (relative stereo) | ACHE (Homo sapiens, UniProt P22303) | enzyme activity, inhibitor, reactivity constant |  |  |  | k2 | 0.9 ± 0.5 min⁻¹
CC(=O)NCCCC[C@H](NC(C)=O)C(=O)N[C@@H](Cc1c[nH]c2ccccc12)C(N)=O | HDAC8 (Homo sapiens, UniProt Q9BY41) | deacetylation, substrate |  | 25 °C, with: 150 nM enzyme |  | kcat/KM | 3.5 ± 0.6 M⁻¹ s⁻¹
COc1ccc2c(c1)c(CC(=O)NCCCCNC(=O)CCC(=O)OC1c3cc4c(cc3C(c3cc(OC)c(OC)c(OC)c3)C3C(=O)OCC13)OCO4)c(C)n2C(=O)c1ccc(Cl)cc1 (stereo not shown) | Ptgs2 (Mus musculus, UniProt Q05769) | time-dependent inhibitor |  | 37 °C |  | k-2 reverse rate constant | 0.0017 s⁻¹
COc1cc2c(cc1OC)C(=O)C(CC1CCN(Cc3cc(C=Cc4ccc(C=Cc5ccc(N(C)C)cc5)cc4)cc(OC)c3O)CC1)C2 (stereo not shown) | Amyloid-beta precursor protein, Aβ42 fibrils (APP, Homo sapiens, UniProt P05067) | fluorescence upon binding, measured: emission at 470 nm |  |  | baseline: probe without protein | fluorescence turn-on | ~4 fold
Cc1ccc(C(=O)Nc2cc(Cl)ccc2C(=O)O)cc1S(=O)(=O)Nc1ccc(Cl)c(Cl)c1 | Replication protein A 70 kDa DNA-binding subunit, N-terminal domain (RPA1, Homo sapiens, UniProt P27694) | binding, fluorescence polarisation competition |  | with: FITC-ATRIP probe |  | ligand efficiency | 0.24
COc1ccccc1C(=O)Oc1c(Br)cc(Br)cc1CNC(=O)c1ccccc1[N+](=O)[O-] | lasR | thermal stability, differential scanning fluorimetry |  |  |  | melting temperature | 68.9 ± 0.3 °C
CN1CCN(CC(O)CN2c3ccccc3Sc3ccccc32)CC1 (stereo not shown) | BAX (Homo sapiens, UniProt Q07812) | ligand-observed 1H NMR |  | 100 µM, 10 µM BAX | baseline: compound without BAX | chemical shift perturbation | 1.3 Hz
C=CCN1CC[C@]23c4c5ccc(O)c4O[C@H]2[C@H](NC(=O)c2ccc(N=[N+]=[N-])c([125I])c2)CC[C@@]3(O)[C@H]1C5 | Oprm1 | binding | CHO cell membranes | 0 °C |  | slowly dissociating fraction | 83%
C=CCn1c(SCC(=O)Nc2ccc(C(C)C)cc2)nnc1-c1ccncc1 | Orco | calcium mobilization, agonist | HEK293 expressing Drosophila Orco |  | baseline: VUAA1 | efficacy | 111%
O=C(NCc1cc(Br)cc(Br)c1OC(=O)c1ccccc1[N+](=O)[O-])c1ccccc1[N+](=O)[O-] | lasR | reporter gene, agonist | Escherichia coli JLD271 lasI-lacZ reporter |  | baseline: OdDHL | maximum efficacy | 93%
CN1C(=O)CCC(N2Cc3cc(-c4nc5ccccn5c4NC(C)(C)C)ccc3C2=O)C1=O (stereo not shown) | WEE1/CRBN (Homo sapiens, UniProt P30291+Q96SW2) | degrader, HiBiT | Jurkat | 5 h |  | Dmax | 45%
COC(=O)[C@@H](CS)N1C(=O)c2ccc(N(C)C)cc2C1=O | Albumin (ALB, Bos taurus, UniProt P02769) | probe |  | 10 µM, probe:protein 1:3 | baseline: probe alone | fluorescence increase | 3 fold
CC(=O)Oc1c(Br)cc(Br)cc1CNC(=O)c1ccccc1[N+](=O)[O-] | lasR | thermal stability, differential scanning fluorimetry |  |  |  | melting temperature | 54.8 ± 0.3 °C
CCn1c(SCC(=O)Nc2ccc(C(C)C)cc2)nnc1-c1cnn(C)c1 | Orco | calcium mobilization, agonist | HEK293 expressing Drosophila Orco |  | baseline: VUAA1 | efficacy | 34%
CC(=O)N[C@@H](CCCNC(=N)N)C(=O)N[C@H](C(=O)N[C@@H](CCCNC(=N)N)C(=O)N[C@@H](CCCNC(=N)N)C(=O)Nc1ccc2c(C)cc(=O)oc2c1)C(C)C | FURIN | substrate |  |  | baseline: with KCl over without KCl | kcat/Km ratio | 0.3
O=C(NC1CCN(c2ncnc3c2nc(-c2ccccc2Cl)n3-c2ccc(Cl)cc2)CC1)C1CCCCC1 | CNR1 (Homo sapiens, UniProt P21554) | calcium mobilization, antagonist, FLIPR | CHO-K1 with Gαq16 | with: CP55940 |  | Ke | 3 nM
COc1ccc(CN[C@@H]2CO[C@H](C(c3ccccc3)c3ccccc3)C[C@H]2O)cc1 | DRD2 (Homo sapiens, UniProt P14416) | radioligand binding |  | 10 µM, with: [3H]N-methylspiperone |  | inhibition | 3.2%
CS(=O)(=O)CCCn1c(Cn2c(=O)n(C3CC3)c3ccncc32)nc2cc(Br)ccc21 | Fusion glycoprotein F0, prefusion DS-Cav1 (Human respiratory syncytial virus A, UniProt P03420, I379V/M447V/S155C/S190F/S290C/V207L) | isothermal titration calorimetry | respiratory syncytial virus A2, PBS with 1% DMSO | concentration not given, 25 °C |  | binding enthalpy (ΔH) | -20 kcal/mol
CC(C)[C@H](NC(=O)[C@H](CCC(N)=O)NC(=O)[C@H](CCCNC(=N)N)NC(=O)[C@H](CCCNC(=N)N)NC(=O)[C@H](CO)NC(=O)[C@H](CCCNC(=N)N)NC(=O)[C@H](CCCCN)NC(=O)[C@H](CCCNC(=N)N)NC(=O)c1ccccc1N)C(=O)N[C@@H](CC(N)=O)C(=O)N[C@H](C(=O)N[C@@H](CCC(N)=O)C(=O)NCCNc1ccc([N+](=O)[O-])cc1[N+](=O)[O-])[C@@H](C)O | FURIN | substrate |  | pH 7 |  | Km | 0.2 µM
Nc1nnc(SSc2nnc(N)s2)s1 | Peptide deformylase (def, Escherichia coli, UniProt P0A6K3) | binding |  |  |  | ΔΔG isomerization step | -3.2 kcal/mol
CC(=O)NCCCC[C@H](NC(C)=O)C(N)=O | HDAC6 (Homo sapiens, UniProt Q9UBN7) | deacetylation, substrate |  | 25 °C, with: 10 to 50 nM enzyme |  | kcat/KM | 150 ± 30 M⁻¹ s⁻¹
COC(=O)[C@@]1(C)C=C(C(=O)Nc2cc(C(=O)Nc3ccc(Nc4nccc(-c5cccnc5)n4)cc3)ccc2C)C(=O)CC1 | MAPK8 | kinase activity, inhibitor |  | 0.006774 µM, unit not given, with: 10 mM GSH | baseline: DMSO | remaining activity | 0.686

Some of these lines once more:
Structure (SMILES) | target | assay | system | setting | scale | quantity | result
CS(=O)(=O)CCCn1c(Cn2c(=O)n(C3CC3)c3ccncc32)nc2cc(Br)ccc21 | Fusion glycoprotein F0, prefusion DS-Cav1 (Human respiratory syncytial virus A, UniProt P03420, I379V/M447V/S155C/S190F/S290C/V207L) | isothermal titration calorimetry | respiratory syncytial virus A2, PBS with 1% DMSO | concentration not given, 25 °C |  | binding enthalpy (ΔH) | -20 kcal/mol
CC(=O)NCCCC[C@H](NC(C)=O)C(N)=O | HDAC6 (Homo sapiens, UniProt Q9UBN7) | deacetylation, substrate |  | 25 °C, with: 10 to 50 nM enzyme |  | kcat/KM | 150 ± 30 M⁻¹ s⁻¹
